Results gathered from unrelated publications.
Parts stem from different laboratories: compare values within a part only. Positions count from the first letter of the parent shown.

Sample 1 — technique: DHFR PCA, deep sequencing; sample: yeast; with: (+)-ABA 2500 µM; reference: wild-type fitted maximum; reading: higher = stronger binding
Target: ABI1, truncated, D143A, DHFR fusion (Arabidopsis thaliana)
Notes: methotrexate growth selection, single substitutions
Starting sequence: PYL1, truncated, DHFR fusion (Arabidopsis thaliana); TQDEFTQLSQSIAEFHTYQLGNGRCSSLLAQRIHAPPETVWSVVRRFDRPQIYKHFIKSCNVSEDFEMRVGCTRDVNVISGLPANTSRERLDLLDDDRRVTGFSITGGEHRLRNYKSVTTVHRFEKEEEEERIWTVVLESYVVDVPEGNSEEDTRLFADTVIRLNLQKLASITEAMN; partner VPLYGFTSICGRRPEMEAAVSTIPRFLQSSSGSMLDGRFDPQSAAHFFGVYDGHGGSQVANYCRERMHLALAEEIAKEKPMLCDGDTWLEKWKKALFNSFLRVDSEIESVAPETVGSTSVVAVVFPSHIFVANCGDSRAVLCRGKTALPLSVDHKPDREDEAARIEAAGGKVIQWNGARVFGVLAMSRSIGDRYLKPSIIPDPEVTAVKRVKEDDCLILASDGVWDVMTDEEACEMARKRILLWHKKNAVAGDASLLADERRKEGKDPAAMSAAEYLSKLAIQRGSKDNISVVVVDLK
Change | relative binding score
D92Q | 93.3%
G21T | 98%
K116C | 101%
E152A | 96%
V70H | 91.9%
H16I | 30.5%
N22S | 104%
K168M | 92.9%
S80C | 69.1%
S87T | 90.6%
D65Y | 94.1%
G102T | 74.9%
R123Y | 104%
G21F | 96.2%
I133P | 103%

Sample 2 — technique: protein binding microarray; form: double-stranded DNA, one strand shown; sample: in vitro; concentration: not given; reference: not given; reading: higher = stronger binding
Target: Histone acetyltransferase KAT6A, winged helix 2, GST fusion (KAT6A, Homo sapiens, UniProt Q92794, residues 85-181)
Notes: 8-mer, flanks averaged, mean of 2 arrays, mostly near background
Target sequence (chain): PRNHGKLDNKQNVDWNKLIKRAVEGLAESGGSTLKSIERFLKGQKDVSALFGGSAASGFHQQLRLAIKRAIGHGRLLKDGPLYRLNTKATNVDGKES
Oligonucleotide | E-score
CGTGACAG | -0.0787
GTTATTAA | 0.0657
AATTCGGC | -0.0591
CGGGACAA | -0.0325
AGCACCGA | 0.174
ACACTCCT | -0.159
GGGTCTTA | -0.19
AATACAAG | 0.0282
CTACATTC | -0.152
GCCCGCAC | 0.205
AAGCCTAA | 0.0245
GCTTTTGA | 0.0425
ACGTGACT | -0.242
GTTGCACA | 0.0992
CTGCGACA | 0.184
CAACTCGG | 0.0519
CCCGCGCA | 0.221
ACGAATGG | 0.00418

Sample 3 — technique: protein-binding microarray; form: double-stranded DNA, one strand shown; sample: in vitro; concentration: 250 nM; notes: 60-bp whole probe; with: salmon DNA 0.4 mg/ml; reference: random background probes; reading: higher = stronger binding; all sequences stand within: GCCTAGCAC … GTCTTGATTCGCTTGACGCTGCTG
Target: Interferon regulatory factor 5, full length, phosphomimetic (IRF5, Homo sapiens, UniProt Q13568-2, residues 1-514, K96S/S451D/S453D/S456D/S462D)
Oligonucleotide | log fluorescence [z-score]
GACGGTTTCCCTTCCCTGACGTGCTAG | 0.819
GGCCCTTTGCTTTCCTGATGGTGCTAG | -0.17
GACGATATCGGGTATCTAGACGTGCTA | 1.83
GACGAACTGAGTGTCGAGACGTGCTAG | -0.15
GACGGACTGTACTTTCGGGACGTGCTA | 5.64
TCACCATTGGTCTTCACACTGTGCTAG | 0.0586
CACTATTTAAGGCCTATGCACGTGCTA | 0.107
TTAGGTATTGGGTTTCGGTTAGTGCTA | 7.75
TTAGATATCAGTAGCGATTAGTGCTAG | 1.24
TCACTTTGCTTTCTCCCACTGTGCTAG | 2.27
TCATTTCTCTTATTCTAACTGTGCTAG | 1.96
GACGGTTTCGGACCGGGGACGTGCTAG | 3.1
AACGGTTTCGGTATCGGGACGTGCTAG | 9.98
TACGGTTTCCTTTTCCTGACGTGCTAG | 1.21
TCAGTGCTCATGCTTCTTACTGTGCTA | -0.292
TCAGTCCTGGCTTTGACACTGTGCTAG | -0.385
TTAGATTTCGGTTTTCGATTAGTGCTA | 9.12
GACGGTCTCGGTCACGGGACGTGCTAG | 0.103
GACGGTCTACTTATCCTGACGTGCTAG | 0.172
TTAGGTCTCCTACTGCTCTAGTGCTAG | -0.197
GGTCTTTCTGTTTTCTCCATGTGCTAG | 5.48
TTAGGTATCGGGCTCGGTTAGTGCTAG | 1.69
GAGGGTATCGGGTTTCGGGACGTGCTA | 3.29
GACAGACTGGGGACTGGGGACGTGCTA | -0.27
GGCGATATCGGGTTTCGAGACGTGCTA | 3.4

Sample 4 — technique: RNA Bind-n-Seq; form: RNA; sample: in vitro; concentration: 365 nM; reference: no-protein control; reading: higher = stronger binding
Target: RNA binding protein fox-1 homolog 2, RRM domain, GST-SBP tag (RBFOX2, Homo sapiens, UniProt O43251-10, residues 100-194)
Notes: natural RNA segment, single round, ends assumed
Construct (chain): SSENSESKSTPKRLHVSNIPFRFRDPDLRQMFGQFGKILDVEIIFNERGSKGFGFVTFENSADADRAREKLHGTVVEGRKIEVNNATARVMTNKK
Oligonucleotide | RBNS enrichment (R)
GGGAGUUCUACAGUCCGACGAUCGGUGUAUGUAGUUGGGCCAUGUUACUUGUCCAGAGGAAGAGACUAAAGAUAUAAGAAUAAUUUUUUAGUCCUAAAUGCUGUUUUGUUUACUUUCUGUCAAGAUAUUUACCUGGAAUUCUCGGGUGCCAA | 1.78
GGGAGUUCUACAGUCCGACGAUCCAGGCCCUUGAUGCCAGGACUCUCUCUACUAAGGCCAGUUCAGGUCUGGGAAAGGGAGCUGGCCUAUUGCCCACCACCUGUUGUCAGUAGGUUAGGAGCUGUUGACUCAGUGGAAUUCUCGGGUGCCAA | 0.328
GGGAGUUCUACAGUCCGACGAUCGCCGAGAUGCAGGGCAAAGUUGCUGUGGCAUCUUUGUUCCUCUCCCUGGGUCUGCACUCCCUCCCCUGUGCCUGACUAAGCCUUGUUCAUUGUUCUUUCAUCCUUACAAGUGGAAUUCUCGGGUGCCAA | 0.783
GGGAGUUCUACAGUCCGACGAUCGAAACAGUUUAACAGAAAAAUGAAAUUUAAGCACAAAAAAUUUAAGAGAUUUUAUGUUUAAAAUGGCAUUUAGCACAGUAUUUAACAUUCUUGGUCACAAAGCUAUUUAAUGGAAUUCUCGGGUGCCAA | 0.559
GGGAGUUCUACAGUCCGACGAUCAAGUGUCUCAGUCCACCUGAGCUGCCAUCCAGGGAUGCCAUCUGUGGGCACGCUGUGGGCAGGUGGGAGCUUGAUUCUCAGCACUUGGGGGAUCUGUUGUGUACGUGGAGUGGAAUUCUCGGGUGCCAA | 1.05
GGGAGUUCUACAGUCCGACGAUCCAAAUGGAACAGAAGCCAUUGUGGUUCAUCCUGAUUACUUGAACGUUGCACUUGGUGGACCGUGCCUGGGAGCGCUCGCAUGCCCCCUGGCUUCAGAAGUCAUGUCAGUGUGGAAUUCUCGGGUGCCAA | 0.263
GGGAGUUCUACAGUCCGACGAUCAGAACUGCCCACAAAACAAGGCUGUGAACUUUUCGGGAACUGGAACUGUUUAACUUGAACCCAGGAUUGUUUAAAGCUUUAUUUAUUUAUAGCUUCUUCUUAAAAAAAAGUGGAAUUCUCGGGUGCCAA | 0.531
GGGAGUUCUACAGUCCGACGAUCCAACUAAUGAUUGUUCCCCUCCUUCUCCCACCACCAAGUUCUUUGUCCUUCCAACCUCCCGGAAAGGGACAAAGGCUCAACAUACUGCAGGACUCCAAAAGGGAAGAAAAUGGAAUUCUCGGGUGCCAA | 0.527
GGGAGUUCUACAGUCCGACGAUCUCUGGAACUGCUGGUCAGGGGACUUUGUCGCCCUGUGCACUAAAGGGCCAGAUUUUCAGCAGCCAAGGACAUCCAUACCCAAGUGAAUGUGAUGGGGCUUCAAGACGUGAUGGAAUUCUCGGGUGCCAA | 0.87
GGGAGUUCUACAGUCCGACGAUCGGCUACCUGUUUGUGUGGCACAAGGACCCUCCUGCCAACCUGUUUGAAGACAUGGACCUCAACAAGGAUGGCGAGGUCCCUCCGGAGGAGGUCUCCACCUUCAUCAAGGCUGGAAUUCUCGGGUGCCAA | 0.281
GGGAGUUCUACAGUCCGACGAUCGUCUGUAGUCUUUAUGAUCCUAAAAGGGAAAAUUGCCUUGGUAACUUUCAGAUUCCUGUGGAAUUGUGAAUUCAUACUAAGCUUUCUGUGCAGUCUCACCAUUUGCAUCAUGGAAUUCUCGGGUGCCAA | 0.551
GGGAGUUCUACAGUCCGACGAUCGUACAAUGCCCACGCCUGCCUGGCUGCUUUCACCUGGGAGUGCUUUCGAUGUGGGCACCUGGGCUUCCUAGGGCUGCUUCUGAGUGGUUCUUUCACGUGUUGUGUCCAUAUGGAAUUCUCGGGUGCCAA | 0.238

For quick reference, copied from above (sample 4):
Oligonucleotide | RBNS enrichment (R)
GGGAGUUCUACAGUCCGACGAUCCAACUAAUGAUUGUUCCCCUCCUUCUCCCACCACCAAGUUCUUUGUCCUUCCAACCUCCCGGAAAGGGACAAAGGCUCAACAUACUGCAGGACUCCAAAAGGGAAGAAAAUGGAAUUCUCGGGUGCCAA | 0.527
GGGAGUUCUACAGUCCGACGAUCGAAACAGUUUAACAGAAAAAUGAAAUUUAAGCACAAAAAAUUUAAGAGAUUUUAUGUUUAAAAUGGCAUUUAGCACAGUAUUUAACAUUCUUGGUCACAAAGCUAUUUAAUGGAAUUCUCGGGUGCCAA | 0.559
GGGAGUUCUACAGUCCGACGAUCGUACAAUGCCCACGCCUGCCUGGCUGCUUUCACCUGGGAGUGCUUUCGAUGUGGGCACCUGGGCUUCCUAGGGCUGCUUCUGAGUGGUUCUUUCACGUGUUGUGUCCAUAUGGAAUUCUCGGGUGCCAA | 0.238
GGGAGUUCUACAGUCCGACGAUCCAGGCCCUUGAUGCCAGGACUCUCUCUACUAAGGCCAGUUCAGGUCUGGGAAAGGGAGCUGGCCUAUUGCCCACCACCUGUUGUCAGUAGGUUAGGAGCUGUUGACUCAGUGGAAUUCUCGGGUGCCAA | 0.328
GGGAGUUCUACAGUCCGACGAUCAGAACUGCCCACAAAACAAGGCUGUGAACUUUUCGGGAACUGGAACUGUUUAACUUGAACCCAGGAUUGUUUAAAGCUUUAUUUAUUUAUAGCUUCUUCUUAAAAAAAAGUGGAAUUCUCGGGUGCCAA | 0.531
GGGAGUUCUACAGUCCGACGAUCUCUGGAACUGCUGGUCAGGGGACUUUGUCGCCCUGUGCACUAAAGGGCCAGAUUUUCAGCAGCCAAGGACAUCCAUACCCAAGUGAAUGUGAUGGGGCUUCAAGACGUGAUGGAAUUCUCGGGUGCCAA | 0.87
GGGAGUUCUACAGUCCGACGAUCGUCUGUAGUCUUUAUGAUCCUAAAAGGGAAAAUUGCCUUGGUAACUUUCAGAUUCCUGUGGAAUUGUGAAUUCAUACUAAGCUUUCUGUGCAGUCUCACCAUUUGCAUCAUGGAAUUCUCGGGUGCCAA | 0.551
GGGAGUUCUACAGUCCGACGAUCAAGUGUCUCAGUCCACCUGAGCUGCCAUCCAGGGAUGCCAUCUGUGGGCACGCUGUGGGCAGGUGGGAGCUUGAUUCUCAGCACUUGGGGGAUCUGUUGUGUACGUGGAGUGGAAUUCUCGGGUGCCAA | 1.05
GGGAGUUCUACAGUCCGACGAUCGCCGAGAUGCAGGGCAAAGUUGCUGUGGCAUCUUUGUUCCUCUCCCUGGGUCUGCACUCCCUCCCCUGUGCCUGACUAAGCCUUGUUCAUUGUUCUUUCAUCCUUACAAGUGGAAUUCUCGGGUGCCAA | 0.783
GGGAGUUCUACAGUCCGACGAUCGGCUACCUGUUUGUGUGGCACAAGGACCCUCCUGCCAACCUGUUUGAAGACAUGGACCUCAACAAGGAUGGCGAGGUCCCUCCGGAGGAGGUCUCCACCUUCAUCAAGGCUGGAAUUCUCGGGUGCCAA | 0.281
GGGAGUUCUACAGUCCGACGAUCGGUGUAUGUAGUUGGGCCAUGUUACUUGUCCAGAGGAAGAGACUAAAGAUAUAAGAAUAAUUUUUUAGUCCUAAAUGCUGUUUUGUUUACUUUCUGUCAAGAUAUUUACCUGGAAUUCUCGGGUGCCAA | 1.78
